# Measurements gathered from unrelated publications.
# Compare with care: the assays were run in different laboratories. Numbers after ± are the reported error.
# SPT15 full length assumed: SPT15 full length assumed (Saccharomyces cerevisiae, UniProt P13393)
# UniProt P13393, sequence (whole entry, looked up): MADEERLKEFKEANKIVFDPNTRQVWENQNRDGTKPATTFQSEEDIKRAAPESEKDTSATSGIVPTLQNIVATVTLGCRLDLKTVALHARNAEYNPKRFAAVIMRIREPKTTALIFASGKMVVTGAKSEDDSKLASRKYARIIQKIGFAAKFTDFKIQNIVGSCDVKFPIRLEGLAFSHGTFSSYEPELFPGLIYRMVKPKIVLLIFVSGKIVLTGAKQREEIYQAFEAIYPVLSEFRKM
# B1: human Nup88; sequence looked up; chain AAAEGPVGDGELWQTWLPNHVVFLRLREGLKNQSPTEAEKPASSSLPSSPPPQLLTRNVVFGLGGELFLWDGEDSSFLVVRLRGPSGGGEEPALSQYQRLLCINPPLFEIYQVLLSPTQHHVALIGIKGLMVLELPKRWGKNSEFEGGKSTVNCSTTPVAERFFTSSTSLTLKHAAWYPSEILDPHVVLLTSDNVIRIYSLREPQTPTNVIILSEAEEESLVLNKGRAYTASLGETAVAFDFGPLAAVPKTLFGQNGKDEVVAYPLYILYENGETFLTYISLLHSPGNIGKLLGPLPMHPAAEDNYGYDACAVLCLPCVPNILVIATESGMLYHCVVLEGEEEDDHTSEKSWDSRIDLIPSLYVFECVELELALKLASGEDDPFDSDFSCPVKLHRDPKCPSRYHCTHEAGVHSVGLTWIHKLHKFLGSDEEDKDSLQELSTEQKCFVEHILCTKPLPCRQPAPIRGFWIVPDILGPTMICITSTYECLIWPLLSTVHPASPPLLCTREDVEVAESPLRVLAETPDSFEKHIRSILQRSVANPAFLKASEKDIAPPPEECLQLLSRATQVFREQYILKQDLAKEEIQRRVKLLCDQKKKQLEDLSYCREERKSLREMAERLADKYEEAKEKQEDIMNRMKKLLHSFHSELPVLSDSERDMKKELQLIPDQLRHLGNAIKQVTMKKDYQQQKMEKVLSLPKPTIILSAYQRKCIQSILKEEGEHIREMVKQINDIRNHVNF
# B2: coatomer subunit delta, human; sequence looked up; chain VLLAAAVCTKAGKAIVSRQFVEMTRTRIEGLLAAFPKLMNTGKQHTFVETESVRYVYQPMEKLYMVLITTKNSNILEDLETLRLFSRVIPEYCRALEENEISEHCFDLIFAFDEIVALGYRENVNLAQIRTFTEMDSHEEKVFRAVRETQEREAKAEMRRKAKELQQARRDAERQGKKAPGFGGFGSSAVSGGSTAAMITETIIETDKPKVAPAPARPSGPSKALKLGAKGKEVDNFVDKLKSEGETIMSSSMGKRTSEATKMHAPPINMESVHMKIEEKITLTCGRDGGLQNMELHGMIMLRISDDKYGRIRLHVENEDKKGVQLQTHPNVDKKLFTAESLIGLKNPEKSFPVNSDVGVLKWRLQTTEESFIPLTINCWPSESGNGCDVNIEYELQEDNLELNDVVITIPLPSGVGAPVIGEIDGEYRHDSRRNTLEWCLPVIDAKNKSGSLEFSIAGQPNDFFPVQVSFVSKKNYCNIQVTKVTQVDGNSPVRFSTETTFLVDKYEIL
# UniProt P26368, sequence (whole entry, looked up): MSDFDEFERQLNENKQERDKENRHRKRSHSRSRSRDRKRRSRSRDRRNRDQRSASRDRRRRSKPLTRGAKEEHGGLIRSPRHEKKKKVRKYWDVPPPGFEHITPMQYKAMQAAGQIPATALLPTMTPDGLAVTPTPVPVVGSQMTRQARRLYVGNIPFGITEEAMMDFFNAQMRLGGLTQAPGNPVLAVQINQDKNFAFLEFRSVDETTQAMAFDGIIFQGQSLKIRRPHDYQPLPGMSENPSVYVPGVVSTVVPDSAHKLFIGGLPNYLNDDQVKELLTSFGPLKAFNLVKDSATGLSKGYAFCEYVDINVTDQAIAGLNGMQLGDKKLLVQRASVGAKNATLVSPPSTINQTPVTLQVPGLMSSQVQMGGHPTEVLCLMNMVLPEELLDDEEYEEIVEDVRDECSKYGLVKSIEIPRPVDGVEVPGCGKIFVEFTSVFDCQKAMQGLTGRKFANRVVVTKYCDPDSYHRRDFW
# UniProt Q00535, sequence (whole entry, looked up): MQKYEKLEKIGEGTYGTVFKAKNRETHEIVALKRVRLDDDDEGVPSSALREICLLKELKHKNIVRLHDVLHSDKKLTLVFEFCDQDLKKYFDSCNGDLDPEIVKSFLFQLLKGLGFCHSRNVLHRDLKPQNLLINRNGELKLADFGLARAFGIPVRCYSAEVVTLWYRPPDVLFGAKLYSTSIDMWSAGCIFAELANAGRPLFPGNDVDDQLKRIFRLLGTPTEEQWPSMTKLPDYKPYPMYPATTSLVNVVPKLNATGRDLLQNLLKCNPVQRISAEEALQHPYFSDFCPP
Molecule,target or system,test,system,conditions,how to read,measurement,value
DNA 1 GATCGATCGATCGATCGATCGATCGATCGATCGATTCAATTCAATCGGTCC / DNA 2 GGACCGATTGACTTGAATCGATCGATCGATCGATCGATCGATCGATCGATC (dsDNA; 5'-amino-C6 primer),SPT15 full length assumed,array,double-stranded DNA,TBP alone,,Kd,45.1 ± 5.04 nM
B1 (human Nup88),U2OS CYB5R4 knock-out,phosphoproteomics,,"concentration not given, together with: cisplatin",reference: cisplatin-treated parental U2OS,phosphorylation log2 fold change,7.82
GGUAUUCUU (ssRNA),"U2AF2 148-342 (Homo sapiens, UniProt P26368)",sequencing of bound RNA,RNA,motif only,,Kd,3420 nM
human ME2 R67A,,"enzyme activity, NADH absorbance",,"without fumarate, together with: L-malate varied",,Hill coefficient,1.2 ± 0.28
KEAFWDRCLSVINLMSSKMLQVNA,"Cyclin-dependent kinase 5, with p25 (CDK5, Homo sapiens, UniProt Q00535)","phosphotransferase activity, radiometric",peptide,"concentration not given, 10% DMSO, together with: histone substrate",reference: p5-WT peptide,activity change,39%
"B2 (coatomer subunit delta, human)",CYB5R4 knockout human cells,"PP4 interaction, 3xFLAG-PP4C IP-MS",,concentration not given,reference: CYB5R4 KO over parental,log2 fold change,0.15
CTCAGGAATTCCTATAAAGTAATGTGGAGCTCAGTTCAAGTCAATCGGTCC (dsDNA; 5'-amino-C6 primer),SPT15 full length assumed,array,"double-stranded DNA, one strand shown",TBP alone,,Kd,1.69 ± 0.06 nM
human ME2 D102S,,"enzyme activity, NADH absorbance",,"with fumarate 3 mM, together with: L-malate varied",,Hill coefficient,1.05 ± 0.04

# Excerpt of the above:
Molecule,target or system,test,system,conditions,how to read,measurement,value
"B2 (coatomer subunit delta, human)",CYB5R4 knockout human cells,"PP4 interaction, 3xFLAG-PP4C IP-MS",,concentration not given,reference: CYB5R4 KO over parental,log2 fold change,0.15
